Measured values of several laboratories.
Protocols differ between the studies behind these lines. Several values in a cell are separate wells, animals, samples, runs or records. ± marks the error that the study gave.
UniProt P50613, sequence (whole entry, looked up): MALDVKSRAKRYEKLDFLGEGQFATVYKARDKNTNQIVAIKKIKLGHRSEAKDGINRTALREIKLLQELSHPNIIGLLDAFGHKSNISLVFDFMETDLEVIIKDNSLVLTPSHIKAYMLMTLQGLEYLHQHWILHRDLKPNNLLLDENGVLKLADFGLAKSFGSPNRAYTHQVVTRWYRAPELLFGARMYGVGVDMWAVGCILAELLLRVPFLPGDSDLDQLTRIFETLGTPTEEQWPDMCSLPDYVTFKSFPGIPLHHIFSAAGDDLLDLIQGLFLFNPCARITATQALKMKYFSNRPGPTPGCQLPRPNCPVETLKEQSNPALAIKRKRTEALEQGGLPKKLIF

SMILES | tested on | test | test system | conditions | scale | measurement | value
COC1CN([C@H]2CC[C@H]([C@@]3(C)Oc4c(Cl)cc(C(=O)NCc5c(SC)cc(C)[nH]c5=O)c(C)c4O3)CC2)C1 | – | RNA-seq, item: DIXDC1 mouse homolog | mouse, HT-1376 xenograft, whole blood | dose not given | reference: vehicle | log2 fold change | 0.126
COC1C=COC2(C)Oc3c(C)c(O)c4c(c3C2=O)C2=NC3(CCN(CC(C)C)CC3)NC2=C(NC(=O)C(C)=CC=CC(C)C(O)C(C)C(O)C(C)C(OC(=O)Nc2cscn2)C1C)C4=O (stereo not drawn) | – | – | CD-1 mouse female, plasma | intravenous, 5 mg/kg | – | clearance | 2.47 mL/min/kg
COc1cccc(OC)c1-c1cc(C(=O)NC2(C(=O)O)C3CC4CC(C3)CC2C4)nn1-c1ccc(C(=O)NCCNC(=O)[C@H](CCCCNC(=O)[C@H](CC(C)C)NC(=O)C2OC2C(=O)O)NC(=O)CN2CCN(CC(=O)[O-])CCN(CC(=O)[O-])CCN(CC(=O)[O-])CC2)cc1C(C)C.[177Lu+3] (mixture of isomers) | – | – | mouse, HT-29 xenograft | 4 h post injection, biodistribution | reference: tumour over liver uptake | tumour-to-liver ratio | 8.92
CCCCN1C(=O)c2cccc3c(NCCCN4CCOCC4)ccc(c23)C1=O | – | – | ethylene glycol | – | – | absorption maximum | 447 nm
C#CCNC(=O)C(CC(C)(C)F)NC(c1ccc(-c2ccc(S(C)(=O)=O)cc2)cc1)C(F)(F)F (stereo not drawn) | – | – | PBS | 100 µM, 23 h, pH 7.45, 37 °C, together with: GSH 5 mM | – | GSH adduct formation | < 1%
CC(C)C[C@H](NC(=O)[C@H](CCCNC(=N)N)NC(=O)[C@H](Cc1ccccc1)NC(=O)[C@H](Cc1ccccc1)NC(=O)[C@@H](NC(=O)[C@H](COP(=O)(O)O)NC(=O)[C@@H](N)COP(=O)(O)O)[C@@H](C)O)C(=O)N[C@@H](Cc1ccccc1)C(=O)N[C@@H](CC(N)=O)C(=O)N[C@@H](CCCNC(=N)N)C(=O)N[C@@H](C)C(=O)N[C@@H](CCCCN)C(=O)N[C@@H](CCCNC(=N)N)C(=O)N[C@@H](Cc1c[nH]cn1)C(=O)N[C@@H](Cc1c[nH]cn1)C(=O)NCC(=O)N[C@@H](Cc1ccc(O)cc1)C(=O)N[C@@H](CCCCN)C(=O)N[C@@H](CCCNC(=N)N)C(=O)N[C@@H](CCCCN)C(=O)N[C@@H](Cc1ccccc1)C(=O)N[C@@H](Cc1c[nH]cn1)C(=O)O | – | HPLC-UV | human saliva | 2 h, 37 °C, together with: initial 1 mg/mL | – | peptide concentration | 0.95 mg/mL
Cc1n[nH]c(C)c1CCCOc1cc(C(=O)NCCCCC(NC(=O)CN2CCN(CC(=O)[O-])CCN(CC(=O)[O-])CCN(CC(=O)[O-])CC2)C(=O)NCC2CCC(C(=O)NC(Cc3ccc4ccccc4c3)C(=O)NCCCCC(NC(=O)NC(CCC(=O)O)C(=O)O)C(=O)O)CC2)ccc1F.[68Ga+3] (stereo not drawn) | – | PET/CT | mice with 22Rv1 tumours | 2 h post-injection, no blocking | – | tumour uptake | 13.9 ± 2.68 %ID/g
COc1cccc(OC)c1-c1cc(C(=O)NC2(C(=O)O)C3CC4CC(C3)CC2C4)nn1-c1ccc(C(=O)N(C)CCOCCN(C)C(=O)[C@H](CCCCNC(=O)[C@H](CC(C)C)NC(=O)C2OC2C(=O)O)NC(=O)CN2CCN(CC(=O)[O-])CCN(CC(=O)[O-])CCN(CC(=O)[O-])CC2)cc1C(C)C.[177Lu+3] (mixture of isomers) | – | – | mouse, HT-29 xenograft | 168 h post injection, biodistribution | reference: tumour over liver uptake | tumour-to-liver ratio | 6.01
Cc1nc(N)nc2c1C(=O)N[C@@H](c1ccc(F)cc1-c1cccc(OCC[18F])n1)C2 | – | ex vivo biodistribution | C57BL/6 mice, muscle | intravenous, 1 MBq, 30 min | – | SUV | 0.79 ± 0.03
Nc1ncc(-c2cc(-c3cnn(CC(F)(F)F)c3)ncc2F)nc1C(=O)NC1CNCC(F)C1 (stereo not drawn) | LCK | KINOMEscan | – | 1 µM | reference: DMSO control | remaining binding | 95%
CCCCCC(=O)[O][Pt]([Cl])([Cl])[O]C(=O)CCCCC.N.N | – | ICP-MS, item: platinum | nude mice, blood | intravenous, 1.76 mg/kg | – | elimination half-life | 38.5 h and 38.4 h
CCCCN1C(=O)c2cccc3c(NCCN4CCOCC4)ccc(c23)C1=O | – | – | dichloromethane | – | – | fluorescence lifetime | 8.8 ns
O=C(Nc1cnccc1-c1ccc([18F])nc1)c1ccnc(NC(=O)C2CC2)c1 | – | – | FVB/NJ mouse, both sexes, brain | intravenous, 5 min | – | SUV | 0.185
CCCCN1C(=O)c2cccc3c(NCCCCCN4CCOCC4)ccc(c23)C1=O | – | – | water | pH 6.0 | – | absorption maximum | 452 nm
CN1CCC[C@]1(C)/C=C/S(=O)(=O)NC(=O)Nc1c2c(cc3c1CCC3)CCC2 | – | item: blood triglycerides increased, not related | human | oral, 12.5 mg twice daily, 14 days, multiple ascending dose | – | subjects with adverse event | 0%
N#C[C@@H]1CC(F)(F)CN1C(=O)CNC(=O)c1ccnc2c(NC(=O)[C@H](CCCCNC(=O)CCOCCOCCOCCOCCOCCOCCNC(=O)CN3CCN(CC(=O)[O-])CCN(CC(=O)[O-])CCN(CC(=O)[O-])CC3)NC(=O)CCCc3ccc(I)cc3)cccc12.[177Lu+3] | U-87 MG tumour model | – | host not given, blood | 96 h, tumour-bearing | – | tracer uptake | 0.14 %ID/g
Cc1nn(-c2cccc(N)c2)c(=O)c2cnc(Nc3ccc(N4CCNCC4)cc3)nc12 | Cyclin-dependent kinase 7, with cyclin H, MAT1 (CDK7, Homo sapiens, UniProt P50613) | inhibitor, SelectScreen kinase | – | – | – | IC50 | > 10 µM
CC(=O)N([O-])CCCCCNC(=O)CCC(=O)N([O-])CCCCCNC(=O)CCC(=O)N([O-])CCCCCN.[89Zr+4] | – | – | 0.9 % NaCl saline | 3 days, pH 4.5, 37 °C | – | intact compound | 98.3 ± 0.8%

SMILES | tested on | test | test system | conditions | scale | measurement | value
O=Cc1cc(C(F)(F)F)ccc1B(O)O | – | chemical stability, HPLC-MS | borate buffered saline | pH 10.2, no N-acetyl-lysine | – | degradation rate constant | 0 h⁻¹
CC(C)(O)c1ncc([S@](N)(=O)=NC(=O)Nc2c3c(cc4c2CCC4)CCC3)s1 | – | item: nervous system disorders | healthy human volunteers | oral, 100 mg once daily, 14 days, spray-dried dispersion | – | subjects with adverse events | 17%
O=C(Nc1cnccc1-c1ccc([18F])cc1)c1ccnc(NC(=O)C2CC2)c1 | – | – | FVB/NJ mice (both sexes), skin | intravenous, dose not given, 120 min | – | SUV | 0.1
CC(=O)[O-].O.O.O.O.[Ni+2].[O-]c1ccc(Br)cc1C=NCCN1CCOCC1 | – | FRAP | – | 160 µM | – | ferric reducing power | 36.4%
Cc1noc(C)c1Cn1cc(N2C(=O)CN(Cc3cccc(OS(=O)(=O)O)c3)C2=O)cn1 | – | – | Sprague-Dawley rat, male | oral, 100 mg/kg of parent drug, 2 h | – | plasma concentration | 4910 ng/mL
O=C1C2CC3CC1CC(C(=O)N1CCN(c4ccc([N+](=O)[O-])c5ncccc45)CC1)(C3)C2 | Salmonella typhimurium | Ames test | TA1535 | 0.31 µg/well, without S9 | – | mean revertant colonies | 4 colonies/well
CCCC[C@H](NC(=O)COCCOCCNC(=O)CN1CCN(CC(=O)O)CCN(CC(=O)O)CC1)C(=O)N[C@H]1CC(=O)NCCCC[C@@H](C(N)=O)NC(=O)[C@H](Cc2c[nH]c3ccccc23)NC(=O)[C@H](CCCNC(=N)N)NC(=O)[C@@H](Cc2ccccc2)NC(=O)[C@H](Cc2c[nH]cn2)NC1=O [technetium-99m labelled] | – | – | C57 mouse, tumor | intravenous, 0.037 MBq, 4 h | – | tissue uptake | 20.3 ± 3.23 %ID/g
CNC(=O)C1CCCN(C(=O)C2CC3CCC2N3C(=O)[C@@H]2C[C@@H](O)CN2C(=O)NCc2cccc(Cl)c2F)C1 (mixture of isomers) | human CYP3A4 | time-dependent inhibition | – | 16.7 µM, preincubation with NADPH, together with: testosterone | – | 6β-hydroxytestosterone formed | 179 ng/mL
CCCC[C@H](NC(=O)CNC(=O)CNC(=O)[C@H](CCCCNC(=O)[C@H](CC(=O)O)NC(=O)C(C)c1ccc(CC(C)C)cc1)NC(=O)CN1CCN(CC(=O)O)CCN(CC(=O)O)CCN(CC(=O)O)CC1)C(=O)N[C@H]1CC(=O)NCCCC[C@@H](C(N)=O)NC(=O)[C@H](Cc2c[nH]c3ccccc23)NC(=O)[C@H](CCCNC(=N)N)NC(=O)[C@@H](Cc2ccccc2)NC(=O)[C@H](Cc2c[nH]cn2)NC1=O (stereo partly drawn) [lutetium-177 labelled] | – | – | C57 mice with B16/F10 melanoma | 2 h, together with: NDP blockade | – | tumour to blood uptake ratio | 1.49
O=C(O)[C@H]1O[C@@H](N(Cc2ccc(C(F)(F)F)nc2)c2ccc(Cc3c[nH]c4ncc(Cl)cc34)cn2)[C@H](O)[C@@H](O)[C@@H]1O | – | – | human, male, plasma | oral, 400 mg of [14C]-pexidartinib single dose, as metabolite | – | AUCinf | 96100 ng·h/mL
CN1CCC[C@]1(C)/C=C/S(=O)(=O)NC(=O)Nc1c2c(cc3c1C(O)CC3)CCC2 (stereo partly drawn) | – | – | human, plasma | oral, 100 mg twice daily of parent drug, metabolite of dosed drug | reference: day 14 over day 1 | AUC(0-tau) accumulation ratio | 1.7
Cc1ncsc1-c1ccc(C(C)NC(=O)C2CC(O)CN2C(=O)C(NC(=O)CCCCCCCCCCN2CCCC(Nc3ncc(Cl)c(Nc4ccccc4S(=O)(=O)C(C)C)n3)C2)C(C)(C)C)cc1 (stereo not drawn) | 22Rv1 | RNA-seq, item: TMTC2 mRNA | – | concentration not given | reference: DMSO | log2 fold change | -1.14
C=CC(=O)Nc1cccc(Cn2ncc3cnc(Nc4cnn(CCOC)c4)nc32)c1 | PCTK3 human | binding, KINOMEscan | – | 100 nM | lower = stronger binding | percent of control | 100%
Cc1nc2cc(C(=O)N[C@@H](C)c3ccc(C(C)(C)C)cc3)ccc2n1Cc1cc(Cl)cc(O[C@H](C)C(=O)O)c1 | – | metabolic stability | mouse, liver microsomes | – | – | half-life | 0.795 h
C=C(NC(=O)c1csc(-c2nc3c(cc2O)-c2nc(cs2)C(=O)NC(C(C)O)C(=O)NC(=C(C)OC)c2nc(cs2)C(=O)NC2c4nc(cs4)C(=O)NC(COC(=O)c4c5c6c(cccc6n4O)COC(=O)C(OC4CC(C)(O)C(N(C)C)C(C)O4)C2OC5)c2nc-3cs2)n1)C(N)=O (stereo not drawn) | – | – | ICR mice, Streptococcus pneumoniae ATCC 49169 infected, immunocompromised, blood | intravenous, 4 mg/kg/day three times daily | – | AUC(0-inf) | 351 ng·h/mL
C/C(N)=N/C(=N\S(=O)(=O)c1ccc(C(F)(F)F)cc1)N1C[C@H](c2ccccc2)C(c2ccc(Cl)cc2)=N1 | – | – | beagle dog, plasma | oral, 36 mg/kg | – | half-life | 11.6 h
Cc1ncsc1-c1ccc(CNC(=O)[C@@H]2C[C@@H](O)CN2C(=O)[C@@H](NC(=O)COCC(C)(COCCOCCOCCNC(=O)C[C@@H]2N=C(c3ccc(Cl)cc3)c3c(sc(C)c3C)-n3c(C)nnc32)COCCOCCOCCNC(=O)C[C@@H]2N=C(c3ccc(Cl)cc3)c3c(sc(C)c3C)-n3c(C)nnc32)C(C)(C)C)cc1 | – | – | C57BL/6 mouse male, plasma | intravenous, 5 mg/kg | – | clearance | 3.02 mL/min/kg
CCCC[C@H](NC(=O)CCCCCCCNC(=O)CN1CCN(CC(=O)O)CCN(CC(=O)O)CC1)C(=O)N[C@H]1CC(=O)NCCCC[C@@H](C(N)=O)NC(=O)[C@H](Cc2c[nH]c3ccccc23)NC(=O)[C@H](CCCNC(=N)N)NC(=O)[C@@H](Cc2ccccc2)NC(=O)[C@H](Cc2c[nH]cn2)NC1=O [fluorine-18 labelled] | – | – | C57 mice, B16/F10 melanoma, urine | intravenous, 0.37 MBq, 0.5 h | – | urinary excretion | 53.5 ± 2.76%

Repeated from above:
SMILES | tested on | test | test system | conditions | scale | measurement | value
Nc1ncc(-c2cc(-c3cnn(CC(F)(F)F)c3)ncc2F)nc1C(=O)NC1CNCC(F)C1 (stereo not drawn) | LCK | KINOMEscan | – | 1 µM | reference: DMSO control | remaining binding | 95%
CCCCCC(=O)[O][Pt]([Cl])([Cl])[O]C(=O)CCCCC.N.N | – | ICP-MS, item: platinum | nude mice, blood | intravenous, 1.76 mg/kg | – | elimination half-life | 38.5 h and 38.4 h
CCCCN1C(=O)c2cccc3c(NCCN4CCOCC4)ccc(c23)C1=O | – | – | dichloromethane | – | – | fluorescence lifetime | 8.8 ns
O=C(Nc1cnccc1-c1ccc([18F])nc1)c1ccnc(NC(=O)C2CC2)c1 | – | – | FVB/NJ mouse, both sexes, brain | intravenous, 5 min | – | SUV | 0.185
CCCCN1C(=O)c2cccc3c(NCCCCCN4CCOCC4)ccc(c23)C1=O | – | – | water | pH 6.0 | – | absorption maximum | 452 nm
CN1CCC[C@]1(C)/C=C/S(=O)(=O)NC(=O)Nc1c2c(cc3c1CCC3)CCC2 | – | item: blood triglycerides increased, not related | human | oral, 12.5 mg twice daily, 14 days, multiple ascending dose | – | subjects with adverse event | 0%
